Experimental data pooled from the literature.
Every numbered part comes from another study and shows a few of its results, in no order.

Study 1
Target: RNA binding protein fox-1 homolog 2, RRM domain, GST-SBP tag (RBFOX2, Homo sapiens, UniProt O43251-10, residues 100-194)
Method: RNA Bind-n-Seq
Form: RNA
Medium: in vitro
Tested at: 365 nM
Notes: natural RNA segment, single round, ends assumed
Baseline: no-protein control
Direction: higher = stronger binding
Target sequence (chain): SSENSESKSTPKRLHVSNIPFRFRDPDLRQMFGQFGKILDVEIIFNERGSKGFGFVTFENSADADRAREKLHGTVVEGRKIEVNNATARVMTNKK
Strand	RBNS enrichment (R)
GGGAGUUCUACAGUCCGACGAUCUGCAACUUGCGUAUCAUCUUCUCCACCUCCAAGUGUCUGAAUGCUUACACAAAUAAAUUUUAUAACUACUCAUUUUGCAUACUAUUCUUGAAAUGUGGCUCCACGGAGCAUGGAAUUCUCGGGUGCCAA	1.02
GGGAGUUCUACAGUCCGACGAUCCGAUCCAGUGGUAGCCUUUGAUACUCCAAAGUAAUUAUGUUCACCCUCUGUACUAAUGACAUUUACAAUUCUAAAAUUUUAUGAAAUUGAAAUGAAAACUAAGAGUUGUAUGGAAUUCUCGGGUGCCAA	0.623
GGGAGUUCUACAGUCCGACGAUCCAGCGUCUAGCAGUUGGGUCCUCACUUUUACUCCAAUUGUGAAAAUAGCCCACGUACCCUCGCAGUGUCCAGUAGGGAUCCCAGAGGCACAUAACCAAGAAAGGAUUUUGUGGAAUUCUCGGGUGCCAA	0.36
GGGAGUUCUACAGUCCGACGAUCUUUUGUUGGUGACCUGGAUAGUGUGGCCUUUGGGACAGAUCAGAGGCACAGGAAAGCAAAGGAAAUGUGCCACCCUUUAGCCUGGCAGGGUCUCCCUGCCCACUGGGCUGUGGAAUUCUCGGGUGCCAA	0.492
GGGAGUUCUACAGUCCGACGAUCGGCCAAAGGUGCAGCAGUGCUUAUCACAUCCACAUACUAAGAGAUUGGUCUUAGUGCGUUUGUGCCCUUUGUUCUGGUCUGACUCUUGCGAAUCUCAGAGCAGGAGAAGUUGGAAUUCUCGGGUGCCAA	0.287
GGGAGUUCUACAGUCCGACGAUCUCUAUGAUCUGAAGAACAAAAAAAAAAGCUUUUUGACUUGUAUAAGAUUUAUGUCUACUGUAAACAUUGCGGAAUUUUUUUUUGUUCUUGUUUUAUUGACAAUGCUAUUGUGGAAUUCUCGGGUGCCAA	0.644
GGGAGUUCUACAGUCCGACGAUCGCGUGUCGGGCGUCUGCUGGCCCUGAGACAUCCAGUCUUCCACACUCAACUGUGGGAUGGGAGGGUGGCGUGGCCUUACCCCAUGAGGCUGUCCAGGCUCUGGCACACAGUGGAAUUCUCGGGUGCCAA	0.425
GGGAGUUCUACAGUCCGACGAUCUCCAUUUUUAAGUGCUUAAAUGAGUACUAUAUUGCAAUAAAAAAUGUAGCGAUAUUAAAAAAAAUGUAGCGAUAUAAUUAACCAGCCAUUAAAAAUUUACUUCUACAGAUUGGAAUUCUCGGGUGCCAA	0.7

Study 2
Target: RING finger protein unkempt homolog, zinc fingers 1-6, GST-SBP tag (UNK, Homo sapiens, UniProt Q9C0B0, residues 30-357)
Sequence of UniProt Q9C0B0 (30-357, looked up): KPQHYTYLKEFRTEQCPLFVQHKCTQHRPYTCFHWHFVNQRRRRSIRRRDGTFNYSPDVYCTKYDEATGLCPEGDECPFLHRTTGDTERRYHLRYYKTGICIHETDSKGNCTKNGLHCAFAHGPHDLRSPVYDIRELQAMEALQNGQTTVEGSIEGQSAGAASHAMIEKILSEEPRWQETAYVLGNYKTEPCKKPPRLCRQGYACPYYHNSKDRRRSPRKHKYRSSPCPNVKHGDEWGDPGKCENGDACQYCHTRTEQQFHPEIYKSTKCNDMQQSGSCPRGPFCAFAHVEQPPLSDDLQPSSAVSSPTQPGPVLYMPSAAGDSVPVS
Method: RNA Bind-n-Seq
Form: RNA
Medium: in vitro
Tested at: not given
Notes: RNA with constant flanks, human-mouse chimeric sites, ends assumed
Baseline: input RNA pool
Direction: higher = stronger binding
Strand	bound/input enrichment [ratio]
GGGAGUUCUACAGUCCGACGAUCAACUUCGUGCAUCGGUUUCCCUUUGUAGCUGUUUCAAUUGGCUUUGCUGUGAAUAAAGAGAUGGAGUUUGGAAUUGUGUACAGCUGUGUGGAAGGCAAGAUGUACACCGGCAGGAAAGGGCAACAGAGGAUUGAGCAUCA	0.361
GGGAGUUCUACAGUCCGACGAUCGGCUGCUGGUGACUGUCCUGGAGUGGCCGUGUCACCGGCCGGAGCGCGGCCAGACUAAUUUUAGAAAAUGCCAAGUAGGAAGUUUGUUGAGGGUGAAGUGGUCAGAGGUCGAUGGCCUGGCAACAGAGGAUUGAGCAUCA	4.33
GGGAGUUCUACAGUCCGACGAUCAAAGUGAUGACUAUGUUUGUACAGCGACAGGUAUUUUCGGAGAGCAAAGAUGAGAUUGCGUUAGUCCUCUAUGGCACAGAUGGCACUGACAAUCCCCUUGCUGGCAAGGACCAGUAUCAGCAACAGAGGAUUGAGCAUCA	0.206
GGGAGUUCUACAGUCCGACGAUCUUGUCGAAGACUCAACGAAAGACUCCAACGGUUAUUCAUAAACAUUACCAAAUACAUCGGAUUCGACAUUUUUAUAUGAGAAAAGUCAAAUUUACUCAACAGAAUUACCAUGACAGACUGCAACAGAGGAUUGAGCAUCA	0.25
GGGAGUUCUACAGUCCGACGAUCAGAAUCUUGGGACUGUUUUGCUUGAUUGGUCAUUGAUAUCUCAACAAACAUGGAGAUAAGAUUAGAAAUCUUGACAUCAACAGGUAUUAAGCAGAAAAAACCAUGGCCACGUGUCUCCUGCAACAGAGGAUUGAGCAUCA	0.141
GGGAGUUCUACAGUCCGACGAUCGGCUGCUGGUGACUGUCCUGGAGUGGCUGGAGUUCCCGCCGGAGCGCGGCCAGACUAAUUUUAGAAAAUGCCAAGUAGGAAAUUUGCUGAGGGUGAAGUGGUCAGAGGCCGAUGGCCUGGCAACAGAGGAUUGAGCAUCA	5.83
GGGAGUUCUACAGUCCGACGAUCUUACUUUUGACUCCCUGGGUCAAGUUCCUGUGGGAGUCAUACAGGCAGUGUUUGGACCUUCUUCGAAACAAUUCUAGAGUAGAGCGCCUUUACCAUGAUAUCGCCCAACAAGCUUUCAAACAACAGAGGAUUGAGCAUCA	0.159
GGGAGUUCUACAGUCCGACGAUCGUAGCUGGGACUACAGAAAUGCUGGUAAUUUCAGUCAGUGAGUCGUGACUUCUGAUGUCCCAGCAAAUGUUGGCAUUGUUGACUGCUCUGUGAAGACUUCUGAGGACCCACGUCUAAGGUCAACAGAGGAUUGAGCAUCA	0.105

Study 3
Target: Ras GTPase-activating protein-binding protein 1, C-terminal RGG region (G3BP1, Homo sapiens, UniProt Q13283)
Sequence of UniProt Q13283 (whole entry, looked up): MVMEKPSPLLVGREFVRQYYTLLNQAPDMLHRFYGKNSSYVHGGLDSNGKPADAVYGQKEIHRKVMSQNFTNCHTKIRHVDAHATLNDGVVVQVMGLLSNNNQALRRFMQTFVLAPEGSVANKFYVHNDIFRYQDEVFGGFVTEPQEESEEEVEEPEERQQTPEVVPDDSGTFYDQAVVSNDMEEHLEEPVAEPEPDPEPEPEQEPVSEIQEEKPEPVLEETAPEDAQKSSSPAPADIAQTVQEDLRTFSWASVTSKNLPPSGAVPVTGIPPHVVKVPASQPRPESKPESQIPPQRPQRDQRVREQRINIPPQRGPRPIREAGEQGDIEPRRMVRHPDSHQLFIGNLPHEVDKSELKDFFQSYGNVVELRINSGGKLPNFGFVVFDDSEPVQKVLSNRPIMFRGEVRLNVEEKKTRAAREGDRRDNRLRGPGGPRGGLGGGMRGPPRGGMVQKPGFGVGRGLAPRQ
Method: RNA Bind-n-Seq
Form: RNA
Medium: in vitro
Tested at: 1 µM
Notes: whole 134-nt RNA, ends assumed
Added: 150 mM KCl
Baseline: input library
Direction: higher = stronger binding
Strand	log2 enrichment
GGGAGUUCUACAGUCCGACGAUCAGUCCUGUGCUACACAUCGUAUGUACCGAAUCGGGGCCCCGGGCCCCGGGCCCCGGGAAAGUAUUAUGUUACGCCGUUCGGAUCUGCACUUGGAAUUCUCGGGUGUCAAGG	-2.17
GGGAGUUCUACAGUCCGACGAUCCACAGACAACACGCACUCACACAGACACAGAGGGAAGGGGUUGGGAUGGGGACAGGGUGCACAGCAGGGCGGGGUAGGACCCCAGCCCCUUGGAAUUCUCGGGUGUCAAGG	-0.253
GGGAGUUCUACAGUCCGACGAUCUCAAGUCCUGUGCUACACAUCGUAUGUACCGAAUCGGAAGGGAAGGGGAAGGGGAAAGUAUUAUGUUACGCCGUUCGGAUCUGCACUUCCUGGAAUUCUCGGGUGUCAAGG	0.487
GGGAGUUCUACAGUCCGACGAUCCACAGACAACACGCACCCACACGGACACAGAGGGAAGGGGUUGGGAUGGGGACAGGGUGCACAGCAGGGCGGGGUAGGACCCCAGCCCCUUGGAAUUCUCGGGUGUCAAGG	-0.574
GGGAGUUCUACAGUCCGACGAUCCCUGUGCUACACAUCGUAUGUACCGAAUCGGGGCCCCCCGGGGCCCCCCGGGGCCCCCCGGAAAGUAUUAUGUUACGCCGUUCGGAUCUGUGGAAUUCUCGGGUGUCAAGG	-1.91
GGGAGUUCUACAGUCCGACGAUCUCCUCAAGUCCUGUGCUACACAUCGUAUGUACCGAAUCGGGCGGGGCGGCGGAAAGUAUUAUGUUACGCCGUUCGGAUCUGCACUUCCAGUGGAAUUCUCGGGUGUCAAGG	-0.698
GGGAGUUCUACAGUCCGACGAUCCCUGUGCUACACAUCGUAUGUACCGAAUCGGCCCCCCCGGGCCCCCCCGGGGCCCCCCCGGAAAGUAUUAUGUUACGCCGUUCGGAUCUGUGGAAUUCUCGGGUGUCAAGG	-1.49
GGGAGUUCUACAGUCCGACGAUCCUCAAGUCCUGUGCUACACAUCGUAUGUACCGAAUCGGCCCGGGCCCGGCCCGGAAAGUAUUAUGUUACGCCGUUCGGAUCUGCACUUCCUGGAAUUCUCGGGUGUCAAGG	-1.34
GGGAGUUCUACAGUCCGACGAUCAGUCCUGUGCUACACAUCGUAUGUACCGAAUCGGUUUUUGGGGUUUUUGGUUUUUGGGAAAGUAUUAUGUUACGCCGUUCGGAUCUGCACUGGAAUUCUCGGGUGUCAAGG	-1.25

Study 4
Target: Histone acetyltransferase KAT6A, winged helix 2, GST fusion (KAT6A, Homo sapiens, UniProt Q92794, residues 85-181)
Method: protein binding microarray
Form: double-stranded DNA, one strand shown
Medium: in vitro
Tested at: not given
Notes: 8-mer, flanks averaged, mean of 2 arrays, mostly near background
Baseline: not given
Direction: higher = stronger binding
Construct (chain): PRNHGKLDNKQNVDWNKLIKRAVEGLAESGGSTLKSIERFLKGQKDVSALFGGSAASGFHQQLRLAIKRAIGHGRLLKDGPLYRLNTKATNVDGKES
Strand	E-score
AAGACGGG	0.0508
ATTTCTAA	-0.0969
CGTTTTTA	0.0741
AAGGCCCG	0.0731
ATTAAGAC	-0.0523
CAGTAGGC	0.0121
CCCACTCA	-0.00485
ATCCATGA	-0.141
CGTTCACA	-0.0411
AGGCTAGA	-0.168
ACACACCA	-0.0532
CATCGAGC	0.0663
ATGAGGGA	-0.167
ACCGCTTA	-0.0373
AGGCACGA	-0.0226
AATGTTGC	-0.00349
GATTTTTA	0.0841
ATTGGTAA	-0.0177
AGAAGCAA	-0.02
ACCGTGTC	0.127
CTATACAA	-0.013
CGATATAC	-0.0318
ACCTGTGA	-0.0878

A few entries again (study 4):
Strand	E-score
CATCGAGC	0.0663
ATGAGGGA	-0.167
ACCGCTTA	-0.0373
AGGCACGA	-0.0226
AATGTTGC	-0.00349
GATTTTTA	0.0841
